Measurements of several laboratories.
Lines come from different studies, so protocols differ. “And” joins repeats or separate records; there may be more than shown. ± gives the spread as reported.

| SMILES | assay | system | setting | scale | measurement | result |
| --- | --- | --- | --- | --- | --- | --- |
| Cc1nnc(S)s1 | CoA-CPM signal reduction, CPM fluorescence thiol | cell-free biochemical | assay interference counter-screen, together with: CoA replacing acetyl-CoA |  | IC50 | > 125 µM |
| CC(C)n1c(C2CCNCC2)nc2c([N+](=O)[O-])c(Br)c(Br)cc21 |  | IDH-mutated AML patients, bone marrow blasts | all dose levels, median and range |  | cycles to maximum reduction | 3 cycles |
| COc1cc(Nc2ncc3c(n2)-c2ccc(Cl)cc2C(c2c(F)cccc2OC)=NC3)ccc1C(=O)O |  | mice, NB-1382 neuroblastoma xenograft | oral, 20.8 mg/kg, day 21 |  | relative tumour volume T/C | 1.17 |
| CC(C)c1c(C(=O)Nc2ccccc2)c(-c2ccccc2)c(-c2ccc(F)cc2)n1CC[C@@H](O)C[C@@H](O)CC(=O)O |  | cynomolgus monkey, male, serum | 40 mg/kg or 25 mg/kg, day 176, 4224 h |  | triglycerides | 54.3 mg/dL |
| COc1ccc(-c2noc(Nc3ccc(Cl)cc3)n2)cc1 | CoA-CPM signal reduction, CPM fluorescence thiol | cell-free biochemical | assay interference counter-screen, together with: CoA replacing acetyl-CoA |  | IC50 | > 125 µM |
| O=C1Nc2cc3[nH]nc(-c4ccncc4)c3cc2CN1Cc1ccccc1 | RECIST v1.1 | human, relapsed or refractory advanced solid tumours | intravenous, 3.6 mg/kg, pooled schedules |  | partial response, best response | 0% |
| C[C@H]1O[C@@H](O[C@H]2CC[C@@]3(C)[C@@H](CC[C@]4(C)[C@@H]3C=C[C@]35OC[C@@]6(CCC(C)(C)C[C@H]63)[C@@H](O)C[C@]54C)[C@]2(C)CO)[C@H](O)[C@@H](O[C@@H]2O[C@H](CO)[C@@H](O)[C@H](O)[C@H]2O)[C@H]1O | H&E staining | Mus musculus, chronic-plus-binge ethanol, liver | dose not given |  | steatosis area | 0.507% and 0.482% and 0.484% and 0.394% and 0.472% and 0.435% |
| Cc1n[nH]c2ccc(-c3cc(OC[C@@H](N)Cc4ccccc4)cnc3-c3ccoc3)cc12 | kinase binding, competitor, MIB/MS competition, measured: CMK2 | Candida albicans cell lysate | 100 nM | reference: DMSO | log2 fold change | 0.0395 |
| CO[C@H]1CC[C@H](N2C(=O)CNc3ncc(-c4ccc(C(C)(C)O)nc4)nc32)CC1 | flow cytometry | stimulated T cells, human, blood | 30 mg single dose, 3 h, mean | reference: baseline | p4EBP1 change from baseline | -45.8% |
| FC(F)=Cc1cc(C(F)(F)F)cc(C(F)(F)F)c1 | HPLC-MS |  | pH 10.2, together with: 50 mM N-α-acetyl-lysine |  | pseudo-first-order rate constant | 0.7 h⁻¹ |
| N#Cc1ccc2c(c1)[C@H]1CCCN(C(=O)c3ccc4[nH]cnc4c3)[C@H]1C2 |  | human, plasma | 240 mg, day 15, 360 h | reference: placebo and baseline | change in 1.5-AHG | 1.6% |
| Cn1cc([C@H]2C[C@H]3CSC(N)=N[C@@]3(c3ccc(F)cc3F)CO2)cn1 | measured: Aβx-40 | Mus musculus wild-type, cerebrospinal fluid | subcutaneous, 50 mg/kg, 9 h |  | Aβ40 level | 0.4 ng/mL |
| N#Cc1ccn2c(-c3ccncc3)c(-c3ccc(F)cc3)nc2c1 | kinase binding, competitor, MIB/MS competition, measured: CKA1 | Candida albicans cell lysate | 10 µM | reference: DMSO | log2 fold change | 0.587 |
| CC(C)[C@H](C(=O)Nc1ccc(C(=O)NO)cc1)c1ccccc1 | volumetric MRI | human | dose not given, 995 days |  | tumour volume change | 5.38% |
| CSCCNc1nc(SCCC(F)(F)F)nc2c1ncn2[C@@H]1O[C@H](COP(=O)(O)OP(=O)(O)C(Cl)(Cl)P(=O)(O)O)[C@@H](O)[C@H]1O | platelet aggregation, light transmission aggregometry | human patients, platelet-rich plasma | dose not given, 3 h, aggregation above 46%, together with: ADP 5 µM |  | patients with high residual reactivity | 84.2% |
| O=S1(=O)C=Cc2ccccc21 | CoA-CPM signal reduction, CPM fluorescence thiol | cell-free biochemical | assay interference counter-screen, together with: CoA replacing acetyl-CoA |  | IC50 | > 125 µM |
| CO[C@H]1C[C@@H]2CC[C@@H](C)[C@@](O)(O2)C(=O)C(=O)N2CCCC[C@H]2C(=O)O[C@H]([C@H](C)C[C@@H]2CC[C@@H](O)[C@H](OC)C2)CC(=O)[C@H](C)/C=C(\C)[C@@H](O)[C@@H](OC)C(=O)[C@H](C)C[C@H](C)/C=C/C=C/C=C/1C | oral glucose tolerance test | healthy adult horses | IV, 0.06 mg/kg, 60 min, test 4 h after single dose |  | blood glucose | 143 mg/dL |
| CCCCC1(CCCC)CN(c2ccccc2)c2cc(SC)c(OCC(=O)N[C@@H](C(=O)NCC(=O)O)c3ccccc3)cc2S(=O)(=O)C1 | measured: 7α-hydroxy-4-cholesten-3-one | human, plasma | 2.5 mg once daily, day 8 |  | plasma C4 | 39.7 ng/mL |

| SMILES | assay | system | setting | scale | measurement | result |
| --- | --- | --- | --- | --- | --- | --- |
| C=CCn1c(=O)c2cnc(Nc3ccc(N4CCN(C)CC4)cc3)nc2n1-c1ccc2c(n1)[C@@](O)(CC)CC2 |  | MCF7 xenograft, BALB/c nude mice | oral, 80 mg/kg, day 29, once daily days 1-22 and 26-28 |  | tumour volume difference | -104 ± 5.7 mm3 |
| C[C@@H](NC(=O)N1C(=O)[C@H](Cc2ccnc(N)c2)[C@H]1C(=O)O)C1CCCCC1 |  | human | iv infusion, 1.0 mg/kg/h, 24 h, unit not given | reference: baseline | PT AUEC | 145 |
| Cc1cc(Nc2cc3ncccc3c(N[C@@H]3C[C@H]4CC[C@@H](C3)N4CCC#N)n2)n[nH]1 |  | moderate-severe ulcerative colitis patients | 80 mg, day 28, unit not given | reference: baseline | change in partial Mayo | -1.3 |
| O=C(O)CNC(=O)Cc1ccccc1 |  | ventricular cardiomyocytes, C57BL/6 mouse | dose not given, 0.372 s |  | sarcomere length | 1.72 µm |
| O=S1(=O)C=C(Oc2ccc3ccccc3c2)c2ccccc21 | CoA-CPM signal reduction, CPM fluorescence thiol | cell-free biochemical | assay interference counter-screen, together with: CoA replacing acetyl-CoA |  | IC50 | > 125 µM |
| CCOCc1nc2c(N)nc3ccccc3c2n1CC(C)(C)O | CD86 expression, flow cytometry | CD14+ myeloid cells in PBMC, human | 100 or 1000 nM |  | CD86 induction | increased |
| Cc1cnc(N2CC3(CCOCC3)C2)c(C(=O)Nc2ccc(C(=O)N3CCc4cc(C(=O)Nc5c(C)cccc5F)sc4-c4ccccc43)cc2)c1 | measured: MCP3 | human RSV infection, plasma | dose not given, AUC, ITT-IS population | reference: placebo | inhibition | -11% |
| [Cl-].[Cl-].[Ru+2].c1cnc2c(c1)ccc1cccnc12.c1cnc2c(c1)ccc1cccnc12.c1csc(-c2ccc(-c3ccc(-c4nc5c6cccnc6c6ncccc6c5[nH]4)s3)s2)c1 |  | air-saturated acetonitrile |  |  | singlet oxygen quantum yield | ~88% |
| CC(C)NCC(O)c1ccc(O)c(O)c1 (centres unmarked) |  | ventricular cardiomyocytes, C57BL/6 mouse | dose not given, 0.052 s |  | sarcomere length | 1.72 µm |
| OC(CCN1CCCCC1)(c1ccccc1)C1CC2C=CC1C2 (centres unmarked) | resting-state EEG | healthy elderly humans | oral, 2 mg, eyes closed, LS mean | reference: baseline | change, Alpha EEG power, in O2-Pz | -14.7% |
| C=CC(=O)Nc1cc(Nc2nccc(Nc3cc(Cl)c(F)cc3C(C)(C)O)n2)c(OC)cc1N1CC[C@@H](N(C)C)C1 |  | human, EGFR exon20ins NSCLC | dose not given, D770_N771insSVD subtype |  | confirmed objective response rate | 60% |
| Cc1nc(C(=O)N2CCC[C@H]2C(=O)N[C@@H](CCC2CCCCC2)C(=O)N[C@@H](CC(C)C)C(=O)NC(C)(C)C(=O)N[C@@H](CC(C)C)C(=O)N[C@@H](CC(C)C)C(=O)NC(C)(C)C(=O)NC(C)(C)C(=O)NCCC(=O)NC2(CN(C)C)CCC2)co1 |  | small unilamellar vesicles | concentration not given |  | calcein leakage | 10.3% |
| Cl.N[C@@H](Cc1ccc(Oc2nnc(-c3ccccc3)nn2)cc1)C(=O)O | iEDDA cycloaddition | aqueous DMSO 25 % | 37 °C, together with: TCO-OH 22 mM |  | kobs | 1.7 s⁻¹ |
| CN(C)C(=O)c1cc2cnc(Nc3ccc(N4CCNCC4)cn3)nc2n1C1CCCC1 | RNA-seq GSEA, measured: HALLMARK_FATTY_ACID_METABOLISM gene set | MB002 tumour | concentration not given | reference: vehicle, direction not given | enrichment score | 0.353 |
| NC(=O)c1cnc2[nH]ccc2c1N[C@@H]1[C@@H]2CC3C[C@H]1C[C@@](O)(C3)C2 | flow cytometry, measured: regulatory T cells | Japanese healthy subjects, peripheral blood | oral, 100 mg twice daily, day 7 |  | change from baseline | -0.68% |
| C[C@H](Oc1ccc(Br)cc1-c1ccon1)C(=O)O | first response latency | human, tibialis anterior muscle | 800 mg, 30 Hz, single ascending dose |  | difference from placebo | -0.428% |
| CCN1[C@@H](C(=O)NC23CCC(C(=O)O)(CC2)CC3)[C@H](c2cccc(Cl)c2F)[C@]2(C(=O)Nc3cc(Cl)ccc32)C12CCCCC2 |  | human, advanced solid tumours | dose not given, sample B assessable patients |  | confirmed partial response rate | 10% |

Some of these lines once more:
| SMILES | assay | system | setting | scale | measurement | result |
| --- | --- | --- | --- | --- | --- | --- |
| Cl.N[C@@H](Cc1ccc(Oc2nnc(-c3ccccc3)nn2)cc1)C(=O)O | iEDDA cycloaddition | aqueous DMSO 25 % | 37 °C, together with: TCO-OH 22 mM |  | kobs | 1.7 s⁻¹ |
| CN(C)C(=O)c1cc2cnc(Nc3ccc(N4CCNCC4)cn3)nc2n1C1CCCC1 | RNA-seq GSEA, measured: HALLMARK_FATTY_ACID_METABOLISM gene set | MB002 tumour | concentration not given | reference: vehicle, direction not given | enrichment score | 0.353 |
| NC(=O)c1cnc2[nH]ccc2c1N[C@@H]1[C@@H]2CC3C[C@H]1C[C@@](O)(C3)C2 | flow cytometry, measured: regulatory T cells | Japanese healthy subjects, peripheral blood | oral, 100 mg twice daily, day 7 |  | change from baseline | -0.68% |
